{"data": "Experimental data pooled from the literature", "route": "oral", "note": "Each line is one published result; not all experiments were run side by side."}
{"SMILES": "OCC1OC(n2cnc3c(NCc4ccc(Br)s4)ncnc32)C(O)C1O (centres unmarked)", "host": "beagle dog", "matrix": "blood", "bioavailability [%]": "59 to 79"}
{"SMILES": "N#Cc1ccnc(N2C(=O)CC[C@H]2C(=O)N(c2cncc(F)c2)[C@H](C(=O)NC2CC(F)(F)C2)c2ccccc2Cl)c1", "host": "beagle dog", "matrix": "plasma", "dose": "10 mg/kg", "bioavailability [%]": 21}
{"SMILES": "COc1cc2ncnc(Oc3ccc(Nc4nccc5[nH]cc(-c6ccc(F)cc6)c(=O)c45)cc3F)c2cc1OC", "host": "male beagle dog", "matrix": "plasma", "bioavailability [%]": 72.6}
{"SMILES": "Cn1cncc1[C@@]1(N)c2ccc(C#N)c(c2)COc2cccc(c2)-c2cc(C#N)nc3ccc1cc23", "host": "beagle dog", "matrix": "plasma", "dose": "10 mg/kg", "notes": "single dose", "bioavailability [%]": 86}
{"SMILES": "CCC1(CC)CC(=O)N(C2CCOc3ccc(C(=O)NC4CC(C)(C)Oc5ccccc54)cc32)C(=N)N1 (centres unmarked)", "host": "male beagle dog", "matrix": "plasma", "bioavailability [%]": 42.4}
{"SMILES": "N#Cc1ccnc(N2C(=O)CC[C@H]2C(=O)N(c2cc(F)cc(F)c2)[C@H](C(=O)NC2CC(F)(F)C2)c2ccccc2Cl)c1 (stereo in doubt)", "host": "beagle dog", "matrix": "plasma", "dose": "10 mg/kg", "bioavailability [%]": 18}
{"SMILES": "CCC1(CC)CC(=O)N(C2c3cc(C(=O)NC4c5ccccc5CC4O)ccc3OC2(C)COC)C(=N)N1 (centres unmarked)", "host": "male beagle dog", "matrix": "plasma", "bioavailability [%]": 66}
{"SMILES": "C/C(N)=N/C(=N\\S(=O)(=O)c1ccc(C(F)(F)F)cc1)N1C[C@H](c2ccccc2)C(c2ccc(Cl)cc2)=N1", "host": "beagle dog", "matrix": "plasma", "dose": "36 mg/kg", "bioavailability [%]": 21}
{"note": "Repeated from above:"}
{"SMILES": "OCC1OC(n2cnc3c(NCc4ccc(Br)s4)ncnc32)C(O)C1O (centres unmarked)", "host": "beagle dog", "matrix": "blood", "bioavailability [%]": "59 to 79"}
